Published values collected from several papers.
Each numbered part is a random draw from the data of one study; scales do not carry over between parts.

Sample 1
Target: Histone acetyltransferase KAT6A, winged helix 2, GST fusion (KAT6A, Homo sapiens, UniProt Q92794, residues 85-181)
Technique: protein binding microarray
Molecule type: double-stranded DNA, one strand shown
Sample: in vitro
Concentration: not given
Notes: 8-mer, flanks averaged, mean of 2 arrays, mostly near background
Reference: not given
Reading: higher = stronger binding
Residues (chain): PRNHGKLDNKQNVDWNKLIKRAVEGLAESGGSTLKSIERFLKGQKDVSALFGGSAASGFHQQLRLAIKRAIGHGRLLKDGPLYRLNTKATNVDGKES
Oligonucleotide	E-score
GCCTTCAA	-0.119
AACGTGTA	-0.104
ACTACTAA	-0.2
ATCGTCAG	-0.0256
ACCAGATC	0.049
AGGACAGG	0.0829

Sample 2
Target: Prothrombin, mature alpha-thrombin (F2, Homo sapiens, UniProt P00734)
Technique: aptamer microarray, sandwich
Molecule type: DNA with 2'F-ANA
Sample: in vitro
Concentration: 200 nM
Notes: whole 15-mer aptamer, many near background
Added: Cy3 exosite-II aptamer, 400 nM
Reading: higher = stronger binding
Oligonucleotide: GGTTGGTGTGGTTGG
Modification	mean fluorescence intensity [a.u.]
2'F-ANA at 3 6 9 11 12 13 14 15	567
2'F-ANA at 3 4 5 7 13 14 15	51.6
2'F-ANA at 3 5 6 8 9 10 12 13 15	59.1
2'F-ANA at 2 3 5 6 13 15	65.5
2'F-ANA at 1 3 6 10 13 14	61

Mixed results
Substance	target or system	assay	system	setting	scale	endpoint	result
NDUFS4 (Homo sapiens, UniProt O43181)	NDUFS3 (Homo sapiens, UniProt O75489)	cross-linking MS	cells	added: BSPNO	–	cross-linked residues	K98 to K232
PhoQ, residues 284 288 289 292 302 303 SMYGEC	PhoP, residues 12 14 15 18 19 AWHSL (Escherichia coli, UniProt P23836)	Sort-seq, measured: YFP reporter	E. coli	PhoQ-PhoP variant library, added: 10 µM Mg2+	reference: high Mg2+ state, higher = stronger signaling	fold induction	9.23
